Values quoted from earlier work as cited in several papers.
Protocols differ between the studies behind these lines. ± marks the error that the study gave.
Slc6a3: Sodium-dependent dopamine transporter (Slc6a3, Rattus norvegicus, UniProt P23977)
UniProt P23977, sequence (whole entry, looked up): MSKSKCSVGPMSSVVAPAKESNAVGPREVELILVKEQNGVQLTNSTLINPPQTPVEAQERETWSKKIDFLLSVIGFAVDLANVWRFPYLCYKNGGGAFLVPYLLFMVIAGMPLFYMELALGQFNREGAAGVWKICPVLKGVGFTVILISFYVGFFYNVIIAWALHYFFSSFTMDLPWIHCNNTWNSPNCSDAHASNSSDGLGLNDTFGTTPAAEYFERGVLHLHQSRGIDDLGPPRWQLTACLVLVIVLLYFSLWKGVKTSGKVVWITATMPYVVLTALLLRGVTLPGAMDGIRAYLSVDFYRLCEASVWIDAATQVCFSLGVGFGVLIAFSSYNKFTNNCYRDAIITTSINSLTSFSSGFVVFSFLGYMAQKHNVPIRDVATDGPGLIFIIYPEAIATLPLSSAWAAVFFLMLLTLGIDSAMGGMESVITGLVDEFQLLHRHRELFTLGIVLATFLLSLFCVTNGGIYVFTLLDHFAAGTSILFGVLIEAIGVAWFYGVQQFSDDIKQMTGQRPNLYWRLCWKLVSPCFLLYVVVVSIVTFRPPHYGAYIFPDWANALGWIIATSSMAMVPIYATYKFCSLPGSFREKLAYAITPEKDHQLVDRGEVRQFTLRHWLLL
Slc6a4: Sodium-dependent serotonin transporter (Slc6a4, Rattus norvegicus, UniProt P31652)
UniProt P31652, sequence (whole entry, looked up): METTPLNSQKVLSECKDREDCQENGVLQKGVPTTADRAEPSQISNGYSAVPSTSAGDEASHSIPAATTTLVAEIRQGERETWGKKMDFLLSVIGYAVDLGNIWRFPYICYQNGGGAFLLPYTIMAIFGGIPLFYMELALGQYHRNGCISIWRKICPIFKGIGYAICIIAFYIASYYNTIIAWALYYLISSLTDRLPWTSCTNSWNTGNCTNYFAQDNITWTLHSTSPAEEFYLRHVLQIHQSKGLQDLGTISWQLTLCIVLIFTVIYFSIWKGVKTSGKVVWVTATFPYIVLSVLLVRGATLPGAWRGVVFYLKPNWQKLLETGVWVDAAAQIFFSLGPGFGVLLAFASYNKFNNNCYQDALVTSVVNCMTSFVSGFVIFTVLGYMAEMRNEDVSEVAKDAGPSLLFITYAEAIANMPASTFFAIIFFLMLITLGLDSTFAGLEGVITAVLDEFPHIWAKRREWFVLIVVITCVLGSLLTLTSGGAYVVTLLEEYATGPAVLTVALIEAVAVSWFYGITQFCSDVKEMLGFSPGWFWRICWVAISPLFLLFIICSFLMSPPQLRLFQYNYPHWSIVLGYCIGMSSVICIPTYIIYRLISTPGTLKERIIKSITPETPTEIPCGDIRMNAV
UniProt P14867, sequence (whole entry, unmodified, looked up): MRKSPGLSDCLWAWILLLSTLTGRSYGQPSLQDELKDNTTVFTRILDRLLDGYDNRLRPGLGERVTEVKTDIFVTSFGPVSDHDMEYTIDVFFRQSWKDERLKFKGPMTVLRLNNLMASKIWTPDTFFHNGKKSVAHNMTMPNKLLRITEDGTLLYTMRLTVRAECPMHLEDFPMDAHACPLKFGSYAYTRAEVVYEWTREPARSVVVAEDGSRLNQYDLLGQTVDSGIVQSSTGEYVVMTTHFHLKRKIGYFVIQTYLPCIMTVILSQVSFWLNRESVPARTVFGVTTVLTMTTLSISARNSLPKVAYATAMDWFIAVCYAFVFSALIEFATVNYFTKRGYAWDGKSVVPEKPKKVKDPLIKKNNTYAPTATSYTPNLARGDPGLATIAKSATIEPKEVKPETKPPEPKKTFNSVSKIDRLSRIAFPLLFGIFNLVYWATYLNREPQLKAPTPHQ
UniProt P31645, sequence (whole entry, looked up): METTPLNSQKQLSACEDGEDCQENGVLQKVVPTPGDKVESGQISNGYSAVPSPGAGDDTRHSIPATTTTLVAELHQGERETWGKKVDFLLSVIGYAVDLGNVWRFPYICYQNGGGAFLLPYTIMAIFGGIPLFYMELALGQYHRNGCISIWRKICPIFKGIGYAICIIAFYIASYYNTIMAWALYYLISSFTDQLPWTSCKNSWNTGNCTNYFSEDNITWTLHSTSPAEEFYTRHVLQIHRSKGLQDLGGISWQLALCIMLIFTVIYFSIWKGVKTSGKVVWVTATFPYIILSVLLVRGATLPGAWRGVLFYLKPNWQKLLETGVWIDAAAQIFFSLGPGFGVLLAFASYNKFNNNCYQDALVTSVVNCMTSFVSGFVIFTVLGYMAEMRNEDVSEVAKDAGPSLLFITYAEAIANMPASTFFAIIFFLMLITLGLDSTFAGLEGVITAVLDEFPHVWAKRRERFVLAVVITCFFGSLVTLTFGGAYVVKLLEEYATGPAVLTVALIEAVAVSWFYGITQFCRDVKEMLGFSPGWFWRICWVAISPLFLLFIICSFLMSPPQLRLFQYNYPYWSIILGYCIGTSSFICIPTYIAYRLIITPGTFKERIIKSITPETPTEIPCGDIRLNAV
UniProt P28223, sequence (whole entry, looked up): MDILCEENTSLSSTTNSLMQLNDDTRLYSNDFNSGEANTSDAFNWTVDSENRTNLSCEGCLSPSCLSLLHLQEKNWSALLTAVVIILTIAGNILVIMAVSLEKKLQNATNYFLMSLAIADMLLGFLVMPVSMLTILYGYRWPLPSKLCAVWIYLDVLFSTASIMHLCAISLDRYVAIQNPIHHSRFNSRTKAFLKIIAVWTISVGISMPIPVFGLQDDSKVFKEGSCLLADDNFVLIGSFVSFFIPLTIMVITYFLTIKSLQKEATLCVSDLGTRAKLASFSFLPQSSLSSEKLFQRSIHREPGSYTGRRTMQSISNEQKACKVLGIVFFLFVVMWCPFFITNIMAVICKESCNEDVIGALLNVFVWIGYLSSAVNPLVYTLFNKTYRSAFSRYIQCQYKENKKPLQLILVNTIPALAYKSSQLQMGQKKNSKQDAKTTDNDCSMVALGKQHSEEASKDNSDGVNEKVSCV
UniProt Q96RJ0, sequence (whole entry, looked up): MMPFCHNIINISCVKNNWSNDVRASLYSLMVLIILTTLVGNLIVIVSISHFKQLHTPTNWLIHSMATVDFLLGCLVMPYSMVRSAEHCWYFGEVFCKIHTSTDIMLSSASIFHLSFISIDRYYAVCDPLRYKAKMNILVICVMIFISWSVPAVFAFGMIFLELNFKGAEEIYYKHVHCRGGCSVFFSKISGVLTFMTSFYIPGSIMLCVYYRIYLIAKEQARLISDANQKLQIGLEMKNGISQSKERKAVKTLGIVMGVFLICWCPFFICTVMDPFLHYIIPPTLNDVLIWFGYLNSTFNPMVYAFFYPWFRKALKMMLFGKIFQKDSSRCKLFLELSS
UniProt P28472, sequence (whole entry, unmodified, looked up): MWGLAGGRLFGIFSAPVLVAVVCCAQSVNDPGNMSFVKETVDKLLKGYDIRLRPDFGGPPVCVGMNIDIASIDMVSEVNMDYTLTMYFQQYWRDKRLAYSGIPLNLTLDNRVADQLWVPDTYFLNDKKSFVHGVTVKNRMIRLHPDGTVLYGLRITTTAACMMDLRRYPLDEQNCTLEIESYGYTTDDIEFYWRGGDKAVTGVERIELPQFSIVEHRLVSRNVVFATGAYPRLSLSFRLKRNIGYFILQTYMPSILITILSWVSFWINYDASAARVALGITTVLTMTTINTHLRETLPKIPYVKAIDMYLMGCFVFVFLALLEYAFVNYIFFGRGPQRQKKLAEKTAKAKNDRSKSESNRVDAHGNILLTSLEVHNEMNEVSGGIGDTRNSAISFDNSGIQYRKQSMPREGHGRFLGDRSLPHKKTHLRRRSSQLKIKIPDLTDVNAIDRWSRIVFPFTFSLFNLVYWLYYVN

CNC(C)C(=O)c1ccc(Cl)cc1 (centres unmarked) gave an EC50 of 42.2 nM (Slc6a3; substrate release, releaser; rat brain synaptosomes).
With CNC(C)C(=O)c1ccc2c(c1)OCO2 (centres unmarked) the EC50 was 234 ± 35 nM (Slc6a4).
With `cyclopropyl methoxycarbonyl metomidate` the EC50 was 3800 ± 400 nM (GABA-A receptor alpha-1/beta-3, with gamma-2 subunit (GABRA1/GABRB3, Homo sapiens, UniProt P14867+P28472, L291T); ion current, agonist; peak 50% of 100 µM GABA).
CNC(C)C(=O)c1ccc(C)cc1 (centres unmarked) has an EC50 of 122 ± 10 nM (Slc6a4).
CNC(C)C(=O)c1ccccc1 (centres unmarked) has an EC50 of 12.5 nM (Slc6a3; substrate release, releaser; rat brain synaptosomes).
CCCCCn1cc(C(=O)C2C(C)(C)C2(C)C)c2ccccc21 gave an EC50 of 417 nM (CB1 receptor; GIRK channel current, agonist).
CNC(C)Cc1ccc2c(c1)OCO2 (centres unmarked) gave an EC50 of 1100 ± 290 nM (SLC6A4 (Homo sapiens, UniProt P31645); [3H]serotonin release, releaser; HEK293 expressing transporter).
With COc1cc(CCN)c(OC)cc1I the EC50 was 60 nM (HTR2A (Homo sapiens, UniProt P28223); agonist).
With NCCc1ccccc1 the EC50 was 138 to 260 nM (TAAR1 (Homo sapiens, UniProt Q96RJ0); agonist).
The EC50 of CNC(C)C(=O)c1ccc(C(F)(F)F)cc1 (centres unmarked) is reported as 2700 nM (Slc6a3; substrate release, releaser; rat brain synaptosomes).
CC1(C)C(C(=O)c2cn(CCCCCF)c3ccccc23)C1(C)C has an EC50 of 98 nM (CB1 receptor; GIRK channel current, agonist).

Excerpt of the above:
With NCCc1ccccc1 the EC50 was 138 to 260 nM (TAAR1 (Homo sapiens, UniProt Q96RJ0); agonist).
